Measured values pooled from the literature.
Numbered parts are unrelated; each lists some results of a single study. Substitutions count along the parent as printed.

Block 1
Target: ABI1, truncated, D143A, DHFR fusion (Arabidopsis thaliana)
Method: DHFR PCA, deep sequencing
Medium: yeast
Setting: methotrexate growth selection, single substitutions
With: (+)-ABA 0.11 µM
Reference: wild-type fitted maximum
Reading: higher = stronger binding
Starting sequence: PYL1, truncated, DHFR fusion (Arabidopsis thaliana); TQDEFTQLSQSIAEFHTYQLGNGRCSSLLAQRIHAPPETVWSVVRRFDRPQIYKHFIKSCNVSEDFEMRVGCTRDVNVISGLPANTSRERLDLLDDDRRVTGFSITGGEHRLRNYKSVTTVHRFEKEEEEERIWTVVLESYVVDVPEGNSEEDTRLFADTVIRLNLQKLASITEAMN; partner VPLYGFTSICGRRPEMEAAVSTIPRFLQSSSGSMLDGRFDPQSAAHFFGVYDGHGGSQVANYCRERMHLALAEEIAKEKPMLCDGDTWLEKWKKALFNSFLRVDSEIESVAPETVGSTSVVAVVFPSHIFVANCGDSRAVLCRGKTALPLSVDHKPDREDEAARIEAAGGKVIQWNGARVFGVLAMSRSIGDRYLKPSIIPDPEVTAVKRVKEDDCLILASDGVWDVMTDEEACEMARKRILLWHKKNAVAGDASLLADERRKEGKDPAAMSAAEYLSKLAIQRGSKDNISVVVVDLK
| Variant | relative binding score |
| --- | --- |
| E125I | 31.9% |
| I57D | -5.47% |
| P37K | -1.58% |
| S9M | 29.1% |
| T154N | -1.43% |
| S80W | 57.3% |
| Q10M | 15.5% |
| T1R | 32.8% |
| V145C | -4.5% |
| L91D | -2.45% |
| E147R | 3.91% |
| L169N | -4.88% |
| S117P | 5.97% |
| Q19T | 36.2% |
| A84G | 44.4% |
| N85L | 58.1% |
| H122D | 0.0952% |
| L156E | 1.22% |
| T1H | 30.6% |
| R46V | 0.132% |
| D97T | 38.5% |
| D65F | 4.88% |
| L164S | 12.7% |
| E131R | 51.9% |
| V70K | 3.21% |

Block 2
Target: Sal-like protein 4, full length isoform A (SALL4, Homo sapiens, UniProt Q9UJQ4, residues 1-1053)
Sequence of UniProt Q9UJQ4 (whole entry, looked up): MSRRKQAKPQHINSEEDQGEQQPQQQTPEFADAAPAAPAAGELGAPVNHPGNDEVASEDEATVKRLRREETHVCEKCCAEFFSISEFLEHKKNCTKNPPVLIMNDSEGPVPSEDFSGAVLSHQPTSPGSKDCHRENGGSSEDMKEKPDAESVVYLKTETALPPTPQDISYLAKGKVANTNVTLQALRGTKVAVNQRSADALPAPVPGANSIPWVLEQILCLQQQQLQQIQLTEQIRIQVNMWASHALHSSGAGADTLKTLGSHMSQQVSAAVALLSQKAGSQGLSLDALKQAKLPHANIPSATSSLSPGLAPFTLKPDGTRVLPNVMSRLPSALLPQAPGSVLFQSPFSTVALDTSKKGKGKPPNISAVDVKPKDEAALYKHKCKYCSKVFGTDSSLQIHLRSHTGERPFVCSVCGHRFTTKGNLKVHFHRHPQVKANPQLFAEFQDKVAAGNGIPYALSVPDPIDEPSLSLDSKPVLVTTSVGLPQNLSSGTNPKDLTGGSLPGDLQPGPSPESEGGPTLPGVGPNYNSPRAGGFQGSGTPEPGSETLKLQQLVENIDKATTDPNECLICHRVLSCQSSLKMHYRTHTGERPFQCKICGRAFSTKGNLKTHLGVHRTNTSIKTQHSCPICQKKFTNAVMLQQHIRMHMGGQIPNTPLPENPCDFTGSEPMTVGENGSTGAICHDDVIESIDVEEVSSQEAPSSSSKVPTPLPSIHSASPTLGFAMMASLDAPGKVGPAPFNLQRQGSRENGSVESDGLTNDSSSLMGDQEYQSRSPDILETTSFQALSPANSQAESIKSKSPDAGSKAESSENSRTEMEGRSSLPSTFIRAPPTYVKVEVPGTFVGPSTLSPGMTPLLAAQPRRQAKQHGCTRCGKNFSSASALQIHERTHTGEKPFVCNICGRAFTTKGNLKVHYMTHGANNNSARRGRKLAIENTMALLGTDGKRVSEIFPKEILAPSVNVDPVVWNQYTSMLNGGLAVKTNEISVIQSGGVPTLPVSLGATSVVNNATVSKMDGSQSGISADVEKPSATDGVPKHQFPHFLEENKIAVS
Method: universal PBM
Molecule type: double-stranded DNA, one strand shown
Medium: in vitro
Concentration: 600 nM
Setting: 8-mer, flanks averaged, mean of replicates
Reading: higher = stronger binding
| Strand | E-score |
| --- | --- |
| ATGATCTA | 0.194 |
| CGTCATCC | -0.108 |
| GACATGGA | 0.0139 |
| GGAAAAAC | 0.153 |
| AAGTAACG | 0.128 |
| CACGGGAC | -0.236 |
| CCTACTCG | -0.173 |
| CGATGTTA | 0.095 |
| ACTAGGTC | -0.0869 |
| AGGGAAAT | 0.0384 |
| TAATTTAA | 0.324 |
| AGTCACCG | -0.344 |
| TTCCAAAA | 0.287 |
| AAGCTGCG | -0.241 |
| GCATACGA | 0.0351 |
| CCTAGTCC | -0.193 |
| CTGCTCAC | -0.185 |
| AAGCAGCC | -0.2 |
| CAAGCGCA | 0.0291 |
| CAGGAGAA | 0.00123 |
| ATTATGCA | 0.314 |
| GGGACAAA | 0.0177 |
| CAGGCCAG | -0.257 |
| CCAGCATA | -0.00679 |
| ATCATCGA | 0.0675 |

Block 3
Target: CCNF, cyclin fold, Cln2 fusion (human)
Method: yeast growth competition, sequencing
Medium: yeast
Setting: strong parent motif
Reference: not given
Reading: higher = stronger binding
Starting sequence: CUX1 docking peptide (human); SRIRRELFIEEIQ
| Variant | normalised enrichment score |
| --- | --- |
| F8L | 1.46 |
| R5A L7A | -0.206 |
| E6A | 7.33 |
| E10A | 5.69 |
| I12A | 4.68 |
| F8A | 0.915 |
| I3A | 7.7 |
| R2A | 4.36 |
| S1A | 5.2 |
| R5K F8L | 0.888 |

Block 4
Target: Ras GTPase-activating protein-binding protein 1, full length (G3BP1, Homo sapiens, UniProt Q13283)
Sequence of UniProt Q13283 (whole entry, looked up): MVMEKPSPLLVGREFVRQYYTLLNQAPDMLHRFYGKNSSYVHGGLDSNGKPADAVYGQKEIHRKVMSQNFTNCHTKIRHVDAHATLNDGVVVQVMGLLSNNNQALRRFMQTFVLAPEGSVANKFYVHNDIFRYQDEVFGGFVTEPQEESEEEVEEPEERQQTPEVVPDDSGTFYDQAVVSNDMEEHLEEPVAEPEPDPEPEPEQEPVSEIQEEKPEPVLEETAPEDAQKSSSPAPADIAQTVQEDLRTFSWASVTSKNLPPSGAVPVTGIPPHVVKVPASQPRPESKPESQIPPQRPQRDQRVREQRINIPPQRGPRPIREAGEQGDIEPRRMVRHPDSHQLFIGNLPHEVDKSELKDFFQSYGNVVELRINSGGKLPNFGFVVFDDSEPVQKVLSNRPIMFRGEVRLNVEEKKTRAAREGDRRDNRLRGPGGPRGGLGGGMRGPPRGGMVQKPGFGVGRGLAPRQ
Method: RNA Bind-n-Seq
Molecule type: RNA
Medium: in vitro
Concentration: 200 nM
Setting: whole 134-nt RNA, ends assumed
With: 150 mM LiCl
Reference: input library
Reading: higher = stronger binding
Library: 7-deaza-guanosine replaces G
Constant ends, left off below: GGGAGUUCUACAGUCCGACGAUC … UGGAAUUCUCGGGUGUCAAGG
| Strand | log2 enrichment |
| --- | --- |
| UCAAGUCCUGUGCUACACAUCGUAUGUACCGAAUCGGAAAGGGGAAAGGAAAGGAAAGUAUUAUGUUACGCCGUUCGGAUCUGCACUUCC | -0.394 |
| UAACUUUAGAGGAGGAUCUGAUGGAUAUGGCAGUGGACGUGGAUUUGGGGAUGGGUAUAAUGGGUAUGGAGGAGGACCUGGAGGUGGCAA | 0.497 |
| AAGUCCUGUGCUACACAUCGUAUGUACCGAAUCGGAAAAGGGGAAAAGGAAAAGGGGAAAGUAUUAUGUUACGCCGUUCGGAUCUGCACU | 0.448 |
| AAGUCCUGUGCUACACAUCGUAUGUACCGAAUCGGGGUGGGGUUUGGGGAAAGGGGAAAGUAUUAUGUUACGCCGUUCGGAUCUGCACUU | -0.483 |
| UGGCCCUGGUGGCAUGCGGGGAGGAAUAGGUGGCCUCAUGGAUCGUGGUGGUCCCGGUGGAAUGUUCAGAGGUGGCCGUGGUGGAGACAG | 0.091 |
| CCUCAAGUCCUGUGCUACACAUCGUAUGUACCGAAUCGGGGCGGCGGGCGGGAAAGUAUUAUGUUACGCCGUUCGGAUCUGCACUUCCAG | -0.526 |
| UGCCCUCCGUGGAGUCUUUGUUUCGAAGUCCGAUAAAGGAAUCUCUAUUCCGGUCUUCUUCUAAAGAGUCUUUGGUACGAACAUCUUCCA | -0.0988 |
| CUGUGCUACACAUCGUAUGUACCGAAUCGGGGAAAAAAAGGGGAAAAAAAGGAAAAAAAGGAAAGUAUUAUGUUACGCCGUUCGGAUCUG | 0.165 |

Block 5
Target: DBP, bZIP domain (human)
Method: DHFR protein complementation
Medium: yeast
Setting: single substitutions, most at no-binding floor
Reference: wild-type JUN-FOS pair
Reading: higher = stronger binding
Starting sequence: JUN, bZIP domain (human); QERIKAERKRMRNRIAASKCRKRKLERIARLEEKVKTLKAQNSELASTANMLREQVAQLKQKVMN; partner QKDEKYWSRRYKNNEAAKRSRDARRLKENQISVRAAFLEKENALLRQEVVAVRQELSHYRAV
| Variant | binding fitness [natural log] |
| --- | --- |
| S43T | -1.43 |
| T48H | -1.27 |
| L31G | -1.43 |
| Q55S | -1.58 |
| E54N | -1.56 |
| I28M | -1.39 |
| L38S | -1.41 |
| R53L | -1.49 |
| S43F | -1.51 |
| S47L | -1.53 |
| V35K | -1.51 |
| L52P | -1.49 |
| L38R | -1.43 |
| V35E | -1.46 |
| K34H | -1.33 |
| S43E | -1.49 |
| K39R | -1.27 |

Some of these lines once more (block 2):
| Strand | E-score |
| --- | --- |
| CACGGGAC | -0.236 |
| CGATGTTA | 0.095 |
| GACATGGA | 0.0139 |
| TAATTTAA | 0.324 |
